# Results collected from several papers.
# Numbered parts are unrelated; each lists some results of a single study. Several values in a cell are separate wells, animals, samples, runs or records.
# UniProt P42685, sequence (whole entry, looked up): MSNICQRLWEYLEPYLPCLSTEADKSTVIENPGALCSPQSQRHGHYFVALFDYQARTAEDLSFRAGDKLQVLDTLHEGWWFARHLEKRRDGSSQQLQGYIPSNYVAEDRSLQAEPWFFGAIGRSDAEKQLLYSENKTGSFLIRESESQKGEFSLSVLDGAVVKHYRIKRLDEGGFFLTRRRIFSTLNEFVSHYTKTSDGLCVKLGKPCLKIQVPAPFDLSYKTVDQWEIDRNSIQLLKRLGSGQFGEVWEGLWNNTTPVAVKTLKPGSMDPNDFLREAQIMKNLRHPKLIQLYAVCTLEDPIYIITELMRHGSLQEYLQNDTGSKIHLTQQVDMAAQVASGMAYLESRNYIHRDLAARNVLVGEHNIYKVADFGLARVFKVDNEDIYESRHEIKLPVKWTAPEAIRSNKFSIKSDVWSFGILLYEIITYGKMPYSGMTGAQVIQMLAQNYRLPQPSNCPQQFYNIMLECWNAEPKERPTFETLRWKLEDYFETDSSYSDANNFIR

# Study 1
# Medium: 1,9-decadiene/PBS
# pH: 7.4
Structure (SMILES),logD
CC(C)C[C@@H]1NC(=O)[C@H](C(C)C)NC(=O)[C@H](Cc2cscn2)NC(=O)[C@H](CCC(=O)N2CCCC2)NC(=O)[C@@H](CCC(=O)N2CCCC2)NC(=O)[C@H](CC(C)C)NC(=O)[C@@H](CC(C)C)NC1=O,-2.21
CC(C)C[C@@H]1NC(=O)[C@H](CCC(=O)N2CCCC2)NC(=O)[C@H](CC(C)C)NC(=O)[C@@H](Cc2cscn2)NC(=O)[C@H](CC(C)C)NC(=O)[C@@H](CC(C)C)NC(=O)[C@H](CC(C)C)NC1=O,-0.333
CC(C)C[C@@H]1NC(=O)[C@@H](C)NC(=O)[C@@H](CC(C)C)NC(=O)[C@@H](CC(C)C)NC(=O)[C@H](C)NC(=O)[C@H](CC(C)C)NC(=O)[C@@H](CC(C)C)NC1=O,0.169
CC(C)C[C@@H]1NC(=O)[C@H](C(C)C)NC(=O)[C@@H](CC(C)C)NC(=O)[C@@H](CC(C)C)NC(=O)[C@@H](CCC(=O)N2CCCC2)NC(=O)[C@H](CC(C)C)NC(=O)[C@@H](CC(C)C)NC1=O,0.731
CC(C)C[C@@H]1NC(=O)[C@H](CC(C)C)NC(=O)[C@@H](CC(C)C)NC(=O)[C@H](CC(C)C)NC(=O)[C@@H](Cc2cscn2)NC(=O)[C@H](Cc2cscn2)NC(=O)[C@H](CCC(=O)N2CCCC2)NC1=O,-0.984
CC(C)C[C@@H]1NC(=O)[C@H](C)NC(=O)[C@@H](Cc2cscn2)NC(=O)[C@@H](CC(C)C)NC(=O)[C@H](C)NC(=O)[C@H](CC(C)C)NC(=O)[C@H](CC(C)C)NC1=O,-1.09
CC(C)C[C@@H]1NC(=O)[C@H](CCC(=O)N2CCCC2)NC(=O)[C@H](CCC(=O)N2CCCC2)NC(=O)[C@@H](Cc2cscn2)NC(=O)[C@H](CC(C)C)NC(=O)[C@@H](CC(C)C)NC(=O)[C@H](CC(C)C)NC1=O,-1.98
CC(C)C[C@@H]1NC(=O)[C@H](C)NC(=O)[C@H](CCC(=O)N2CCCC2)NC(=O)[C@H](CC(C)C)NC(=O)[C@@H](Cc2cscn2)NC(=O)[C@H](CC(C)C)NC(=O)[C@@H](CC(C)C)NC1=O,-2.04

# Study 2
# Organism: Sarcocystis neurona
# Observed: parasite growth
# Tested at: 10 µM
# Time: 96 h
# Setting: secondary screen
Compound,inhibition [%]
Cn1c(=O)c2[nH]cnc2n(C)c1=O,-9.7
CC(C)NCC(O)c1ccc(NS(C)(=O)=O)cc1 (stereo not shown),-5.2
COc1ccccc1N1CCN(CC(O)COc2cccc3ccccc23)CC1 (stereo not shown),-36.6
CCCC(=O)Nc1ccc(OCC(O)CNC(C)C)c(C(C)=O)c1 (stereo not shown),-48
CN1[C@@H]2CC[C@H]1C[C@@H](OC(=O)C(CO)c1ccccc1)C2 (stereo partly shown),-25.7
C#C[C@]1(OC(C)=O)CC[C@H]2[C@@H]3CCC4=CC(=O)CC[C@@H]4[C@H]3CC[C@@]21C,-14.9
CC(C(=O)O)c1ccc(CC2CCCC2=O)cc1 (stereo not shown),-16.3
CC(=O)OCC[N+](C)(C)C,-14.2

# Study 3
# SMILES: CC(C)C[C@H]1NC(=O)[C@H](N(C)C(=O)[C@@H](CC2CCC2)NC(=O)[C@H]2C[C@H](F)CN2C(=O)C2(C(F)(F)F)CC(F)(F)C2)CCCCNC(=O)C2(CC2)NC(=O)[C@@H](Cc2cc(Cl)ccc2Cl)N(C)C1=O
# Method: Vi-Cell counting
# Time: 6 days
# Baseline: DMSO
cell line,tested at,cell count
A549,600 nM,0.95 and 0.963 and 0.873
HCC4006,200 nM,0.898 and 1.34 and 1.16
A549,20 nM,0.932 and 0.915 and 0.855
HCC4006,600 nM,0.937 and 0.975 and 1
NCI-H446,600 nM,0.844 and 0.982 and 1.03

# Other studies, line by line
SMILES,target,observed,action,tested at,baseline,endpoint,value
N/C(=N\[N+](=O)[O-])N/N=C\c1ccc(-c2cccc([N+](=O)[O-])c2)o1,"Tyrosine-protein kinase FRK (FRK, Homo sapiens, UniProt P42685)",enzyme activity,inhibitor,0.5 µM,control,remaining activity,90.1%
